# Measurements gathered from unrelated publications.
# Protocols differ between the studies behind these lines. Numbers after ± are the reported error.
# Organism: Leishmania donovani
Compound,test,system,conditions,how to read,measurement,result
CCCCCCCCCCCCCCCCOP(=O)([O-])OCC[N+](C)(C)C,parasite growth,mouse Macrophage,"72 h, intracellular, amastigote",,EC50,3.3 µM
C[C@@H]1N[C@H](CCCCCCCCCCc2cc(CCCCCCCCCC[C@@H]3CC[C@H](O)[C@@H](C)N3)c3[n+](c2)CCC3)CC[C@H]1O,parasite growth,THP-1,"intracellular, amastigote",,IC90,8.74 µg/mL
O=C1NC(=S)S/C1=C\c1cn(Cc2cccc(Cl)c2)c2ccc([N+](=O)[O-])cc12,"parasite growth, resazurin",THP-1,"72 h, intracellular, amastigote",,IC50,2.02 µM
N=C(N)c1ccc(OCCCCCOc2ccc(C(=N)N)cc2)cc1,viability,axenic amastigotes,72 h,,IC50,1 µg/mL
Clc1ccccc1C(c1ccccc1)(c1ccccc1)n1ccnc1,LC-MS/MS,LV82 promastigote,"20 µM, 24 h, with fecosterol, 4-methylzymosterol, unit not given",baseline: DMSO,episterol level,0.025 ± 0.013
O=[N+]([O-])c1ccc2[nH]ccc2c1,"parasite growth, resazurin",THP-1,"72 h, intracellular, amastigote",,IC50,> 10 µM
Cc1cc2[nH]c(C(=O)Nc3ccccc3Cl)c(CN3CCOCC3)c2s1,parasite growth,THP-1,"80 µM, intracellular, amastigote",,inhibition,< 50%
Cn1c([N+](=O)[O-])cnc1COc1ccc(S(C)(=O)=O)cc1,parasite growth,"mouse peritoneal macrophages, LV9",intracellular amastigotes,,EC99,45.2 µM
N=C(N)c1ccc(OCCCCCOc2ccc(C(=N)N)cc2)cc1,parasite growth,THP-1,"intracellular, amastigote",,IC90,6.87 µg/mL
CSc1ccc(OCc2ncc([N+](=O)[O-])n2C)cc1,parasite growth,mouse Macrophage,"72 h, intracellular, amastigote",,EC50,> 50 µM
COc1ccc2c(c1)c1cc(C=O)c(OC)cc1n2C,"parasite growth, resazurin",,"72 h, promastigote",,IC50,> 148 µM
O=C1CSC(=S)N1/N=C/c1c[nH]c2ccc([N+](=O)[O-])cc12,"parasite growth, resazurin",THP-1,"72 h, intracellular, amastigote",,IC50,> 10 µM
c1cnc(NCCCCCn2ccnc2)cn1,,J774.2 macrophages,"IC25, 240 h, day 10",baseline: untreated,infection inhibition,50%
O=C1NC(=S)S/C1=C\c1cn(Cc2ccc(F)cc2)c2ccc([N+](=O)[O-])cc12,"parasite growth, resazurin",THP-1,"72 h, intracellular, amastigote",,IC50,> 10 µM
C[C@@H](c1ncncc1F)[C@](O)(Cn1cncn1)c1ccc(F)cc1F,LC-MS/MS,LV82 promastigote,"50 µM, 24 h, with episterol, 4-methylzymosterol, unit not given",baseline: DMSO,fecosterol level,0.18 ± 0.06
C[C@@H]1[C@H](O)[C@@H](C)/C=C/C=C/C=C/C=C/C=C/C=C/C=C/[C@H](O[C@@H]2O[C@H](C)[C@@H](O)[C@H](N)[C@@H]2O)C[C@@H]2O[C@](O)(C[C@@H](O)C[C@@H](O)[C@H](O)CC[C@@H](O)C[C@@H](O)CC(=O)O[C@H]1C)C[C@H](O)[C@H]2C(=O)O,"parasite growth, resazurin",THP-1,"24 h, intracellular, amastigote",,IC50,0.05 µM
Cn1c([N+](=O)[O-])cnc1COc1ccc([S+](C)[O-])cc1 (centres unmarked),parasite growth,mouse Macrophage,"72 h, intracellular, amastigote",,EC50,5.3 µM

# A few entries again:
Compound,test,system,conditions,how to read,measurement,result
O=C1NC(=S)S/C1=C\c1cn(Cc2cccc(Cl)c2)c2ccc([N+](=O)[O-])cc12,"parasite growth, resazurin",THP-1,"72 h, intracellular, amastigote",,IC50,2.02 µM
